Published values from different studies.
Each line is one published result; not all experiments were run side by side.

Compound | organism | test | system | setting | MIC
CC1(C)SC2C(NC(=O)C(NC(=O)C3=C(O)CN(c4ccccc4)C3=O)c3ccccc3)C(=O)N2C1C(=O)O (stereo not shown) | Escherichia coli | broth microdilution | ATCC 25922 wild type | no clavulanic acid | 25 µg/mL
CC1(C)S[C@@H]2[C@H](NC(=O)[C@H](N)c3ccccc3)C(=O)N2[C@H]1C(=O)O | Salmonella enterica serovar Enteritidis | broth microdilution | clinical isolate RKI-No 205/14 | – | > 16 µg/mL
O=c1[nH]c(NCc2ccc(Cl)c(Cl)c2)nc2ncn(CCN3CCOCC3)c12 | Clostridioides difficile | agar dilution anaerobic | 3584 | 48 h | 1 µg/mL
Cc1ccc(CCC(=O)Nc2nnc(S(N)(=O)=O)s2)cc1 | Levilactobacillus brevis | – | ATCC 14869 | – | > 784 µM
N=C(N)c1ccc(OCc2cc(Br)cc(COc3ccc(C(=N)N)cc3)c2)cc1 | Escherichia coli | – | mcr-3 polymyxin-resistant | compound alone | 100 µg/mL
Nc1[nH]c(=O)ncc1F | Cryptococcus neoformans | EUCAST broth dilution | – | 72 h, 37 °C, 100% growth inhibition, alone | 8 µg/mL
O/N=c1\cc2n(-c3ccc(Cl)cc3)c3ccccc3nc-2cc1Nc1ccc(Cl)cc1 | Neisseria meningitidis | bacterial growth | ATCC 13077 | 24 h | > 30 µM
Cc1ncc([N+](=O)[O-])n1CCO | Clostridioides difficile | agar dilution anaerobic | 3581 | 48 h | 1 µg/mL
CO[C@H]1/C=C/O[C@@]2(C)Oc3c(C)c(O)c4c(c3C2=O)C2=NC3(CCN(CCn5c([N+](=O)[O-])cnc5C)CC3)NC2=C(NC(=O)/C(C)=C\C=C\[C@H](C)[C@H](O)[C@@H](C)[C@@H](O)[C@@H](C)[C@H](OC(C)=O)[C@@H]1C)C4=O | Clostridioides difficile | agar dilution | fluoroquinolone-resistant | – | ≤ 0.002 µg/mL
O=c1[nH]c(NCc2ccc(Cl)c(Cl)c2)nc2ncn(CCCCCN3CCOCC3)c12 | Clostridioides difficile | agar dilution anaerobic | 3584 | 48 h | 2 µg/mL
NOCC(=O)O | Nakaseomyces glabratus | – | CG2 | – | 1000 µg/mL
N=C(N)c1ccc(OCc2ccc(Br)cc2COc2ccc(C(=N)N)cc2)cc1 | Escherichia coli | – | BW25113 | in combination, lowest-FICI combination, added: vancomycin | 100 µg/mL
CC(C)(C)OCC1NC(=O)C(C(=O)NC(C(=O)NC2C(=O)N3C2SC(C)(C)C3C(=O)O)c2ccccc2)=C1O (stereo not shown) | Escherichia coli | broth microdilution | ATCC 25922 wild type | added: clavulanic acid 6 µg/mL | 12.5 µg/mL
CC[C@H](C)CCCCC(=O)N[C@@H](CCN)C(=O)N[C@H](C(=O)N[C@@H](CCN)C(=O)N[C@H]1CCNC(=O)[C@H]([C@@H](C)O)NC(=O)[C@H](CCN)NC(=O)[C@H](CCN)NC(=O)[C@H](CC(C)C)NC(=O)[C@@H](CC(C)C)NC(=O)[C@H](CCN)NC1=O)[C@@H](C)O | Pseudomonas aeruginosa | broth microdilution | ATCC 27853, cation-adjusted Mueller-Hinton broth | 18 to 20 h, 37 °C, 0.002% polysorbate 80 | 0.5 µg/mL
N=C(N)c1cccc(OCc2ccc(COc3cccc(C(=N)N)c3)cc2)c1 | Escherichia coli | – | mcr-1 polymyxin-resistant | 20 h, compound alone | > 200 µg/mL
Cc1c(CN(C)C(=O)/C=C/c2cnc3c(c2)CCC(=O)N3)oc2ccccc12 | Escherichia coli | broth microdilution | AR-0151 | – | > 32 µg/mL

Compound | organism | test | system | setting | MIC
CCc1cc(Nc2cc(=O)n(CCCCO)c(=O)[nH]2)ccc1C | Clostridioides difficile | agar dilution anaerobic | 3588 | 48 h | 1 µg/mL
OC(Cn1cncn1)(Cn1cncn1)c1ccc(F)cc1F | Cryptococcus neoformans | – | 108, RPMI 1640 | 24 h, 35 °C | 25 µM
CCCCCCCCCC(=O)N[C@@H](Cc1c[nH]c2ccccc12)C(=O)N[C@H](CC(N)=O)C(=O)N[C@@H](CC(=O)O)C(=O)N[C@@H]1C(=O)NCC(=O)N[C@@H](CCCN)C(=O)N[C@@H](CC(=O)O)C(=O)N[C@H](C)C(=O)N[C@@H](CC(=O)O)C(=O)NCC(=O)N[C@H](CO)C(=O)N[C@@H]([C@H](C)CC(=O)O)C(=O)N[C@@H](CC(=O)c2ccccc2N)C(=O)O[C@@H]1C | Staphylococcus aureus | – | SH1000 | added: phosphatidylethanolamine, molar ratio 1 | 1 µg/mL
CCOCCn1cnc2nc(NCc3ccc(Cl)c(Cl)c3)[nH]c(=O)c21 | Clostridioides difficile | agar dilution anaerobic | 3584 | 48 h | 2 µg/mL
CCOC(=O)CON | Nakaseomyces glabratus | – | CG2 | – | 32 µg/mL
C=CCO/N=c1\cc2n(-c3ccc(Cl)cc3)c3ccccc3nc-2cc1Nc1ccc(Cl)cc1 | Neisseria meningitidis | bacterial growth | ATCC 13077 | 24 h | > 30 µM
N=C(N)c1ccc(OCCC(CCOc2ccc(C(=N)N)cc2)c2ccccc2)cc1 (stereo not shown) | Escherichia coli | – | mcr-3 polymyxin-resistant | compound alone | > 200 µg/mL
Clc1ccc(Nc2cc3nc4ccccc4n(-c4ccc(Cl)cc4)c-3c/c2=N\OCc2ccccc2)cc1 | Neisseria meningitidis | bacterial growth | ATCC 13077 | 24 h | > 30 µM
CO[C@H]1/C=C/O[C@@]2(C)Oc3c(C)c(O)c4c(c3C2=O)C2=NC3(CCN(CC(C)C)CC3)NC2=C(NC(=O)/C(C)=C\C=C\[C@H](C)[C@H](O)[C@@H](C)[C@@H](O)[C@@H](C)[C@H](OC(C)=O)[C@@H]1C)C4=O | Mycobacteroides abscessus | broth microdilution | ATCC 19977 | – | 2 µM
O=C(CO/N=c1\cc2n(-c3ccc(Cl)cc3)c3ccccc3nc-2cc1Nc1ccc(Cl)cc1)NCc1ccc(C(F)(F)F)cc1 | Neisseria meningitidis | bacterial growth | ATCC 13077 | 24 h | > 30 µM
CC(C)C1NC(=O)C(C(=O)NC(C(=O)NC2C(=O)N3C2SC(C)(C)C3C(=O)O)c2ccccc2)=C1O (stereo not shown) | Escherichia coli | broth microdilution | BW25113 wild type | 18 h | 50 µg/mL
C[C@H](NC(=O)CO/N=c1\cc2n(-c3ccc(Cl)cc3)c3ccccc3nc-2cc1Nc1ccc(Cl)cc1)C(=O)O | Neisseria meningitidis | bacterial growth | ATCC 13077 | 24 h | 7.5 µM
N=C(N)c1ccc(OCc2cc(COc3ccc(C(=N)N)cc3)cc(-c3ccccc3)c2)cc1 | Escherichia coli | – | BW25113 | compound alone | 100 µg/mL
O=C(CO/N=c1\cc2n(-c3ccc(Cl)cc3)c3ccccc3nc-2cc1Nc1ccc(Cl)cc1)NCc1ccc2c(c1)CCO2 | Neisseria meningitidis | bacterial growth | ATCC 13077 | 24 h | > 30 µM
C[C@H]1COc2c(N3CCN(C)CC3)c(F)cc3c(=O)c(C(=O)O)cn1c23 | Proteus vulgaris | agar dilution | ATCC 29905 susceptible | – | ≤ 0.03 µg/mL

Some of these lines once more:
Compound | organism | test | system | setting | MIC
CO[C@H]1/C=C/O[C@@]2(C)Oc3c(C)c(O)c4c(c3C2=O)C2=NC3(CCN(CCn5c([N+](=O)[O-])cnc5C)CC3)NC2=C(NC(=O)/C(C)=C\C=C\[C@H](C)[C@H](O)[C@@H](C)[C@@H](O)[C@@H](C)[C@H](OC(C)=O)[C@@H]1C)C4=O | Clostridioides difficile | agar dilution | fluoroquinolone-resistant | – | ≤ 0.002 µg/mL
NOCC(=O)O | Nakaseomyces glabratus | – | CG2 | – | 1000 µg/mL
C[C@H](NC(=O)CO/N=c1\cc2n(-c3ccc(Cl)cc3)c3ccccc3nc-2cc1Nc1ccc(Cl)cc1)C(=O)O | Neisseria meningitidis | bacterial growth | ATCC 13077 | 24 h | 7.5 µM
